Measurements of several laboratories.
Protocols differ between the studies behind these lines. Numbers after ± are the reported error.

| SMILES | test | test system | conditions | how to read | quantity | result |
| --- | --- | --- | --- | --- | --- | --- |
| CN1CCC[C@]1(C)/C=C/S(=O)(=O)NC(=O)Nc1c2c(cc3c1CCC3)CCC2 | – | human, whole blood ex vivo | 100 mg twice daily, day 14, 6 h, multiple ascending dose, with: LPS and ATP | – | IL-1β inhibition | 99.6% |
| COc1cc(O)ccc1CCC(c1ccc(O)cc1)c1cc2c(c(C)c1O)OC(c1ccc(O)cc1)CC2 (mixture of isomers) | – | human blood | 3 µM, with: A23187 | – | 20-OH-LTB4 level | 266 ± 79 pg/mL |
| COC1CN([C@H]2CC[C@H]([C@@]3(C)Oc4c(Cl)cc(C(=O)NCc5c(SC)cc(C)[nH]c5=O)c(C)c4O3)CC2)C1 | RNA-seq, item: CREB3L1 mouse homolog | mouse, HT-1376 xenograft, whole blood | dose not given | baseline: vehicle | log2 fold change | 0.954 |
| CC(CCC(=O)NCc1ccc(C(=O)NO)cc1)C1CCC2C3C(O)CC4CC(O)CCC4(C)C3CCC12C (centres unmarked) | item: GUDCA | PCK rat (Pkhd1 mutant), peripheral blood | oral gavage, dose not given, 5 months | baseline: total bile acids | relative abundance | 2.21% |
| CC(=O)[O-].O.[Cu+2].[O-]c1ccc(Br)cc1C=NCCN1CCOCC1 | hydroxyl radical scavenging | – | 80 µM | – | inhibition | 16.6% |
| COc1ccc2cc3[n+](cc2c1OCCCOC(=O)c1cscn1)CCc1cc2c(cc1-3)OCO2 | – | C57BL/6 mice, high-fat diet | oral gavage, 10 mg/kg daily, 14 weeks | baseline: HFD control | plasma LDL-C reduction | 18.7% |
| COc1ccc(C(=O)CCc2cc(C(CCc3ccc(O)cc3OC)c3ccc(O)cc3)c(O)cc2OC)cc1 (racemic) | – | human blood | 10 µM, with: A23187 | – | EPA level | 72500 ± 14000 pg/mL |
| N=C(N)NCCC[C@@H]1NC(=O)[C@H](CCCNC(=N)N)NC(=O)[C@@H](C(c2ccccc2)c2ccccc2)NC(=O)[C@H](Cc2c[nH]c3ccccc23)NC(=O)[C@@H](C(c2ccccc2)c2ccccc2)NC(=O)[C@@H](CCCNC(=N)N)NC(=O)[C@@H](CCCNC(=N)N)NC1=O | – | bacterial membrane liposomes | 50 µg/mL, 20 min | – | calcein leakage | 56 to 64% |

Repeated from above:
| SMILES | test | test system | conditions | how to read | quantity | result |
| --- | --- | --- | --- | --- | --- | --- |
| CN1CCC[C@]1(C)/C=C/S(=O)(=O)NC(=O)Nc1c2c(cc3c1CCC3)CCC2 | – | human, whole blood ex vivo | 100 mg twice daily, day 14, 6 h, multiple ascending dose, with: LPS and ATP | – | IL-1β inhibition | 99.6% |
